Experimental data pooled from the literature.
± gives the spread as reported.
ADORA1: Adenosine receptor A1 (ADORA1, Homo sapiens, UniProt P30542)
Chain of UniProt P30542 (whole entry, looked up): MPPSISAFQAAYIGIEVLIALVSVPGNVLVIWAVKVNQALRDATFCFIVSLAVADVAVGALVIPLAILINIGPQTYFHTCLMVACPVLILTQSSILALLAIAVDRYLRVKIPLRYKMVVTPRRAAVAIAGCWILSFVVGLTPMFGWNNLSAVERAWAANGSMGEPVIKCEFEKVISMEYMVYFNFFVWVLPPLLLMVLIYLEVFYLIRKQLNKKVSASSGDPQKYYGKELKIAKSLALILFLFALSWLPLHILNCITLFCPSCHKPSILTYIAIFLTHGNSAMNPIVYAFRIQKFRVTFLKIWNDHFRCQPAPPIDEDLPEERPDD
SLC10A2: Ileal sodium/bile acid cotransporter (SLC10A2, Homo sapiens, UniProt Q12908)
Chain of UniProt Q12908 (whole entry, looked up): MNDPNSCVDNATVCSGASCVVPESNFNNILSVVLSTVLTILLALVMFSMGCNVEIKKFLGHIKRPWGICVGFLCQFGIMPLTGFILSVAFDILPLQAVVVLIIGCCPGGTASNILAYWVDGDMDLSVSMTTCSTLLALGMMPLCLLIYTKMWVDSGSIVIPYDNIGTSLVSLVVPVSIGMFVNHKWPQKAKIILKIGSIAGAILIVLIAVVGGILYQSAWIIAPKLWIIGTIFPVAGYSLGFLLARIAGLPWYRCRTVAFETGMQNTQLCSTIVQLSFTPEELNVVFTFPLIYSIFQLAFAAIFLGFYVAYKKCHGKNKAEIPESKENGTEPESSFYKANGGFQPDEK
T1: RNA G4, bulged parallel (Homo sapiens); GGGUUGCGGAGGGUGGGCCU
T2: pre-miR-21 RNA (Homo sapiens); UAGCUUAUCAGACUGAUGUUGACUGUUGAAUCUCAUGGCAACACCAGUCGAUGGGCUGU
T3: DNA aptamer; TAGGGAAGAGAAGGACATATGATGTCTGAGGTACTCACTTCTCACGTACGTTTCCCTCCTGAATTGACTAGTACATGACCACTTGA
Chain of UniProt P16442 (whole entry, unmodified, looked up): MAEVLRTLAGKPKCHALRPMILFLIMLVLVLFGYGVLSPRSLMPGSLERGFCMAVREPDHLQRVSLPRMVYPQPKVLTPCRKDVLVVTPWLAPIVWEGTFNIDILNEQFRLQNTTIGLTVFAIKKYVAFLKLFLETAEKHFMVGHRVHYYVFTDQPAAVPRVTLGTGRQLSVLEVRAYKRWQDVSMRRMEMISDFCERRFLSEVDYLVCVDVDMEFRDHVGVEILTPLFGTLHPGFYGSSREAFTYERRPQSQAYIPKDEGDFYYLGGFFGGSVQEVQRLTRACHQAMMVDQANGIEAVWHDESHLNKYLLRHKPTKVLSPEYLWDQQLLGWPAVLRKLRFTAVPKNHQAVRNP
Chain of UniProt Q29437 (whole entry, looked up): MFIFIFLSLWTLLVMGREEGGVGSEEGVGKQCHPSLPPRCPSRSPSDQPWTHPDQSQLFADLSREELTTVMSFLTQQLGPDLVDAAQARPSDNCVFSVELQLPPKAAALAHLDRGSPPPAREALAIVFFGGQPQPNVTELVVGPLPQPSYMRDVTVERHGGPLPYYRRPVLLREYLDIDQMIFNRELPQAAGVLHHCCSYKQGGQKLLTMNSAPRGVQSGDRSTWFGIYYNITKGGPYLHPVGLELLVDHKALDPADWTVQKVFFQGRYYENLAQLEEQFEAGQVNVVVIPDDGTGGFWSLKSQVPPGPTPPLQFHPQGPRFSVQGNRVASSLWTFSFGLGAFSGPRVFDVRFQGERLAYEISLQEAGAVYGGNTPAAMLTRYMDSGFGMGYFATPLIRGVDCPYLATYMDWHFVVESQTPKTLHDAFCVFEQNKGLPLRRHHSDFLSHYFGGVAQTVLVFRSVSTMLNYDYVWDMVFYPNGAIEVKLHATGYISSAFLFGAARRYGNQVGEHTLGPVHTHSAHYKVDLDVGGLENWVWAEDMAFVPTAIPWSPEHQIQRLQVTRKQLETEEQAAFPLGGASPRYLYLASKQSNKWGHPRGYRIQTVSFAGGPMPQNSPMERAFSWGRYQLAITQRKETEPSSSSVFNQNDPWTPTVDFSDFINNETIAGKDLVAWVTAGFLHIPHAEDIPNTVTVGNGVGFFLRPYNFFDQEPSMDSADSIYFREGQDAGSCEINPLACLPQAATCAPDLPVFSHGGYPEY
Chain of UniProt P41968 (whole entry, looked up): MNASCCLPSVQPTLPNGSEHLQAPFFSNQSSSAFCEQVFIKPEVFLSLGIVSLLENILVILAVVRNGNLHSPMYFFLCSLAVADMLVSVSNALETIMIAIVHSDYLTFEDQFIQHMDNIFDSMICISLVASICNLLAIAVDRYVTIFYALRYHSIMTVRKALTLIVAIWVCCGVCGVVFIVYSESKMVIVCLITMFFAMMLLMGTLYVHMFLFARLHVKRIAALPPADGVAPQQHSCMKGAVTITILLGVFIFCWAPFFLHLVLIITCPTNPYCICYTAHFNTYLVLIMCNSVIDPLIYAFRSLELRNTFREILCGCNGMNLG
Chain of UniProt P53341 (whole entry, unmodified, looked up): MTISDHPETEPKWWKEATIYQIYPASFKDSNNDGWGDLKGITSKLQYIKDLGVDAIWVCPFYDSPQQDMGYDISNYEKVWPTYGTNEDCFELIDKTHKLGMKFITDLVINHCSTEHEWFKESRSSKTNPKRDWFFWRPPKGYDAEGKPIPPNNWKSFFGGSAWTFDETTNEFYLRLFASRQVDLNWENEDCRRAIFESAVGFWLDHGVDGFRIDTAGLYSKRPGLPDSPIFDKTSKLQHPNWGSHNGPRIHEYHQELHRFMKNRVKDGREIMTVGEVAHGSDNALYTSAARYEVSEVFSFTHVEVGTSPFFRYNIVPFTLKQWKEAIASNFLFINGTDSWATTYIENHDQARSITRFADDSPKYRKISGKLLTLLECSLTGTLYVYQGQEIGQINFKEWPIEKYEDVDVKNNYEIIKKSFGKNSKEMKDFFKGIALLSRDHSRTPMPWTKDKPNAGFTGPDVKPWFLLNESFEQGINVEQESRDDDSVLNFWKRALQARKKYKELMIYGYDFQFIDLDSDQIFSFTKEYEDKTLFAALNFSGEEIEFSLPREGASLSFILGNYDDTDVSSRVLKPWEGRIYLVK
Chain of UniProt P18031 (whole entry, looked up): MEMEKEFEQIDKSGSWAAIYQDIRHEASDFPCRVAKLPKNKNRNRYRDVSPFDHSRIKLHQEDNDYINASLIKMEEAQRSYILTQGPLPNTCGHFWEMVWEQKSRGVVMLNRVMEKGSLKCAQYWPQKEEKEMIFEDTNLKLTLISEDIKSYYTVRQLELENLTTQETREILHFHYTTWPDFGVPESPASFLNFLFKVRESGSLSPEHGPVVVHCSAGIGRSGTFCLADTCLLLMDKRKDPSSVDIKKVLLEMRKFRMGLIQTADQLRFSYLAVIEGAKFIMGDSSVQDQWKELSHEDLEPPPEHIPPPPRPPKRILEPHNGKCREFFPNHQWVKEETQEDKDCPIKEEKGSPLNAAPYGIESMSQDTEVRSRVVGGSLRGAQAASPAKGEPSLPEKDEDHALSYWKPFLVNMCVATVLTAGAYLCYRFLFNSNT
Chain of UniProt P03372 (whole entry, looked up): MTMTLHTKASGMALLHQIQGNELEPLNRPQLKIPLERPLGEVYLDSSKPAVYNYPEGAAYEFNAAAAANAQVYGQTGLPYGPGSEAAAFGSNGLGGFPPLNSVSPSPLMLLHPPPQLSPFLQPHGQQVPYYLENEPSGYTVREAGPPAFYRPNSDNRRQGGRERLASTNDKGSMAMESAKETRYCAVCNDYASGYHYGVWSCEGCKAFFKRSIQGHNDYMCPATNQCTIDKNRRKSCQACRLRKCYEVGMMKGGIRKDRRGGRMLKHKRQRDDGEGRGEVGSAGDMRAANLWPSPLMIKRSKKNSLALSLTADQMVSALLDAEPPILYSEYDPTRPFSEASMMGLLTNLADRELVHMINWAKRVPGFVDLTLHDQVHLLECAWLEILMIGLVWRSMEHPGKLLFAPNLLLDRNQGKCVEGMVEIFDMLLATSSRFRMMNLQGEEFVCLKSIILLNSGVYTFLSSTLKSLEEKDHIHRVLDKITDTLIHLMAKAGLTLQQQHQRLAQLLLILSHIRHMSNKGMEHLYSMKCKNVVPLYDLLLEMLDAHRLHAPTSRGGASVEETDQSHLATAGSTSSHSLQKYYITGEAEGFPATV
Chain of UniProt P56524 (whole entry, looked up): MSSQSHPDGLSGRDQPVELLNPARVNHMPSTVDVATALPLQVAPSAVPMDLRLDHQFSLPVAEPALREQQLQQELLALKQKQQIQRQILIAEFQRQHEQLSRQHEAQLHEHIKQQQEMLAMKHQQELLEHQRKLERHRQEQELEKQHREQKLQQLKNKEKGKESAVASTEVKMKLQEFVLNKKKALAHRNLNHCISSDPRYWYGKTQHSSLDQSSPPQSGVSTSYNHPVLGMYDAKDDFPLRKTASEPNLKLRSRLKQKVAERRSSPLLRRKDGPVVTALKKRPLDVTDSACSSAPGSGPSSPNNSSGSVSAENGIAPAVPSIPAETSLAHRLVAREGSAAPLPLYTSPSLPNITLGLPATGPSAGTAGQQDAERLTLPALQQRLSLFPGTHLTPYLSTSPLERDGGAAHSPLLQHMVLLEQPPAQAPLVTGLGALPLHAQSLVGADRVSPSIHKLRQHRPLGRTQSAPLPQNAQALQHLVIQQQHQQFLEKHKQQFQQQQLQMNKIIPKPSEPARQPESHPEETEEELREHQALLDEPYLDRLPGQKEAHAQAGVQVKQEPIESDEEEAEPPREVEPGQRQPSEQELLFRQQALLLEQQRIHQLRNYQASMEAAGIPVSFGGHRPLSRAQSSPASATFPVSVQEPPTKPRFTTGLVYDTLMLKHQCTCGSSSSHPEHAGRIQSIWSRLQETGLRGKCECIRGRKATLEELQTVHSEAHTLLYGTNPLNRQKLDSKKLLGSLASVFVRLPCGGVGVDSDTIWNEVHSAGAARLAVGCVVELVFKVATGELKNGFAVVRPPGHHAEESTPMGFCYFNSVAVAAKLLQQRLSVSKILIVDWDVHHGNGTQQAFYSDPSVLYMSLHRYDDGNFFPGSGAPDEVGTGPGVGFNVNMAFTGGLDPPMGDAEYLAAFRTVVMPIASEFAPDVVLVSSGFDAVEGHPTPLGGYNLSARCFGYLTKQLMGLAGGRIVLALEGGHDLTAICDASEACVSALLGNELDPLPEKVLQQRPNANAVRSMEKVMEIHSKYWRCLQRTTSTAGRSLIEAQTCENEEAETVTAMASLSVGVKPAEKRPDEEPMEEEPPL
Chain of UniProt P80075 (whole entry, looked up): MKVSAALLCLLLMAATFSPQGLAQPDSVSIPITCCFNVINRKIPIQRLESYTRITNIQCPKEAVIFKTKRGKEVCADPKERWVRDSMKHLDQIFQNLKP

`COc1ccc(-c2ocnc2-c2cc(Br)c(OC)c(OC)c2)cc1OCCCC(=O)NO`: enzyme activity “no effect” (HDAC4 (Homo sapiens, UniProt P56524); inhibitor, fluorogenic; IC50 and twice IC50; reference: untreated).
With `O=C1C[C@@H](c2ccc(O)c(-c3cc([C@@H]4CC(=O)c5c(O)cc(O)cc5O4)ccc3O)c2)Oc2cc(O)cc(O)c21` the Vmax was 1.79 ± 0.2 µmol/min/mg (PRXC1A (Armoracia rusticana, UniProt P00433); oxidation, substrate).
The Emax of `N#Cc1c(N)nc(SCc2ncc[nH]2)c(C#N)c1-c1cccc(O)c1` is reported as 102% (ADORA1; cAMP, agonist).
`CCC(=C(c1ccc(O)cc1)c1ccc(OCCN(C)CCOCCOCCOCCOCCOCCOCCOCCOCCOCCOCCOCCN(C)CCOc2ccc(C(=C(CC)c3ccccc3)c3ccc(O)cc3)cc2)cc1)c1ccccc1` (mixture of isomers): “relative binding affinity” 7.17 ± 1.4% (ESR2 (Homo sapiens, UniProt Q92731); radioligand competition binding; concentration not given, Z-Z/Z isomer form, with: [3H]estradiol tracer; reference: estradiol).
For `C[C@@H]1O[C@@H](O[C@H]2C(=O)c3c(O)cc(O)cc3O[C@@H]2c2ccc(O)cc2)[C@H](O)[C@H](O)[C@H]1O`, “Ki (enzyme-substrate complex)” read 8.33 µM (PTPN1 (Homo sapiens, UniProt P18031); Lineweaver-Burk and Dixon plots).
`C[C@H](CCC(=O)N[C@@H](CCC(=O)Nc1cncc(Br)c1)C(=O)O)[C@H]1CC[C@H]2[C@@H]3[C@H](O)C[C@@H]4C[C@H](O)CC[C@]4(C)[C@H]3CC[C@]12C` has a normalized Jmax/Kt of 0.0203 µM⁻¹ (SLC10A2; transport efficiency, substrate, LC-MS/MS; ASBT-MDCK).
For `CCc1nc2cc3ccccc3cc2cc1C(=O)N1CCC[C@H]1C(=O)N[C@@H](CCC/C=C\CCC[C@H](NC(=O)[C@@H]1CCCN1C(=O)c1cc2cc3ccccc3cc2nc1CC)C(=O)N[C@@H](CCCCN)C(=O)NCCCN)C(=O)N[C@@H](CCCCN)C(=O)NCCCN`, the residence time was 130 s ((CCUG)10 RNA; SPR).
With `CCC(=C(c1ccc(Cl)cc1)c1ccc(OCCCN(C)C)cc1)c1ccc(Cl)cc1` the fold activation was 1.21 ± 0.03 fold (Estrogen receptor (ESR1, Homo sapiens, UniProt P03372); reporter gene, agonist, yeast estrogen screen; 1 µM; reference: DMSO).
`CC(C)[C@H](NC(=O)[C@@H]1CCCN1C(=O)[C@H](CCCCN)NC(=O)[C@H](Cc1ccccc1)NC(=O)[C@H](Cc1ccccc1)NC(=O)[C@H](CC(=O)O)NC(=O)[C@H](CCC(=O)O)NC(=O)[C@H](Cc1ccc(O)cc1)NC(=O)[C@H](CC(=O)O)NC(=O)[C@H](CCC(=O)O)NC(=O)[C@H](CC(=O)O)NC(=O)[C@H](CCC(=O)O)NC(=O)[C@@H](N)Cc1ccc(O)cc1)C(=O)N[C@H](C(=O)N[C@@H](CSSC[C@H](NC(=O)[C@@H](NC(=O)[C@@H](NC(=O)[C@@H]1CCCN1C(=O)[C@H](CCCCN)NC(=O)[C@H](Cc1ccccc1)NC(=O)[C@H](Cc1ccccc1)NC(=O)[C@H](CC(=O)O)NC(=O)[C@H](CCC(=O)O)NC(=O)[C@H](Cc1ccc(O)cc1)NC(=O)[C@H](CC(=O)O)NC(=O)[C@H](CCC(=O)O)NC(=O)[C@H](CC(=O)O)NC(=O)[C@H](CCC(=O)O)NC(=O)[C@@H](N)Cc1ccc(O)cc1)C(C)C)[C@@H](C)O)C(=O)N[C@@H](Cc1ccc(O)cc1)C(=O)N[C@@H](Cc1ccccc1)C(N)=O)C(=O)N[C@@H](Cc1ccc(O)cc1)C(=O)N[C@@H](Cc1ccccc1)C(N)=O)[C@@H](C)O` gave a binding stoichiometry of 0.776 ± 0.024 (C-C motif chemokine 8 (CCL8, Homo sapiens, UniProt P80075); isothermal titration calorimetry; concentration not given).
`CCCCCCCCO[C@@H]1O[C@H](CO)[C@H](O)C[C@H]1O[C@@H]1O[C@@H](C)[C@@H](O)[C@@H](O)[C@@H]1O` gave a kon of 7.9e+06 M⁻¹ s⁻¹ (ABO (Homo sapiens, UniProt P16442, G235S/G268A/L266M/R176G); methyl-TROSY NMR titration lineshape analysis; apo enzyme).
`CC(CCC(=O)NC(CCC(=O)Nc1ccc(Br)nc1)C(=O)O)C1CCC2C3C(O)CC4CC(O)CCC4(C)C3CCC12C` (stereo not shown) has a Kt of 83.6 µM (SLC10A2; transport, substrate, LC-MS/MS; ASBT-MDCK cells).
`N=C(N)NCCC[C@H](NC(=O)[C@H](CC(=O)O)NC(=O)[C@@H]1CSCC(=O)NCC(=O)N[C@@H](Cc2c[nH]cn2)C(=O)N[C@H](Cc2ccccc2)C(=O)N[C@@H](CCCNC(=N)N)C(=O)N[C@@H](Cc2c[nH]c3ccccc23)C(=O)N1)C(=O)N[C@@H](Cc1ccccc1)C(=O)NCC(N)=O` has an activation of 140% (MC3R (Homo sapiens, UniProt P41968); cAMP accumulation, agonist; HEK293 expressing MC3R; 10 µM; reference: MT-II).
Under “fold decrease in inverse agonism”, `CC(C)C[C@H](NC(=O)[C@H](CC(C)C)NC(=O)[C@@H](NC(=O)[C@H](Cc1ccccc1)NC(=O)[C@@H](Cc1c[nH]c2ccccc12)NC(=O)[C@@H](N)CCCCN)[C@@H](c1ccccc1)c1c[nH]c2ccccc12)C(N)=O` is recorded as greater than 10 fold (GHSR (Homo sapiens, UniProt Q92847); inverse agonist, IP-One HTRF; reference: KwFwLL-NH2).
`CCCCCCOc1ccc(C(=O)OCCN2CC=CCC2)cc1` has a dissociation half-time of 4.4 ± 0.4 h (CHRM1 (Homo sapiens, UniProt P11229); recovery of [3H]NMS binding after washing; membranes; 100 µM).
For `[C-]#[O+].[C-]#[O+].[C-]#[O+].[C-]#[O+].[C-]#[O+].[C-]#[O+].[Cl-].[Cl-].[Re+].[Re+].c1cnc(-c2ncccn2)nc1`, “number of binding sites” read 1.48 (Albumin (ALB, Homo sapiens, UniProt P02768); tryptophan fluorescence quenching; concentration not given).
For `CNS(=O)(=O)N1Cc2c(-c3ccc(C(=O)N4CCCc5ccccc54)cc3)cnn2C[C@H]1Cc1ccccc1`, activity read “inactive” (PRKN/UBB (Homo sapiens, UniProt O60260+P0CG47); not specified; concentration not given).
With `CCN(CC)c1ccc2cc(/C=C/c3ccc4cc(F)c(N5CCN(C)CC5)cc4[n+]3C)c(=O)oc2c1` the IC50 was 1.05 µM (T1, RNA G4, bulged parallel (Homo sapiens); protein displacement, competitor, microscale thermophoresis; pH 7.5, 25 °C, KCl 150 mM, MgCl2 1 mM, with: nucleolin 80 nM).
With `Cc1ccc(NC(=O)c2c(C)oc3ccc(O)c(CN4CCCCCC4)c23)cc1` the composite Z-score was 0.16 (FOXO3 binding site DNA; binding, small molecule microarray; direction not given).
`CCCn1c(=O)c2[nH]c(-c3ccc(OCC(=O)NCCNC(=O)CCCCCNC(=O)CCCCCNS(=O)(=O)c4cccc5c(N(C)C)cccc45)cc3)nc2n(CCC)c1=O`: “inverse agonist response” 1.4 ± 0.1 fold increase (ADORA1; CRE reporter gene, inverse agonist; CHO-A1; concentration not given, with: forskolin; reference: forskolin alone).
`CC(=O)N[C@@H]1[C@@H](O[C@@H]2O[C@H](C(=O)O)[C@@H](O[C@@H]3O[C@H](COS(=O)(=O)O)[C@@H](OS(=O)(=O)O)[C@H](O[C@@H]4O[C@H](C(=O)O)[C@@H](O[C@@H]5O[C@H](COS(=O)(=O)O)[C@@H](OS(=O)(=O)O)[C@H](O[C@@H]6O[C@H](C(=O)O)[C@@H](OS(=O)(=O)O)[C@H](OS(=O)(=O)O)[C@H]6OS(=O)(=O)O)[C@H]5NC(C)=O)[C@H](OS(=O)(=O)O)[C@H]4OS(=O)(=O)O)[C@H]3NC(C)=O)[C@H](OS(=O)(=O)O)[C@H]2OS(=O)(=O)O)[C@H](OS(=O)(=O)O)[C@@H](COS(=O)(=O)O)O[C@H]1N=[N+]=[N-]`: “binding affinity ratio” 11 fold (Bone morphogenetic protein 2 (Homo sapiens, UniProt P12643); FP competition; reference: cpd over monovalent azide analogue, higher = stronger binding).
`O=C(CSC(=S)N1CCCCCC1)Nc1cccc2c1C(=O)c1ccccc1C2=O` has a phosphorylation decrease of 2.8 fold (ROR1 (Homo sapiens, UniProt Q01973); RTK phosphorylation antibody array; A549; concentration not given; reference: control).
`COc1ccc(NC(=O)CCCOc2ccc(-c3nc4cc(-c5ccc(N6CCN(C)CC6)cc5)ccc4[nH]3)cc2)cc1OCc1cn2ccccc2n1` has an IC50 of 12 µM (T2, pre-miR-21 RNA (Homo sapiens); RNase L cleavage, competitor, RNase L cleavage assay; with: RIBOTAC TGP-21-C1-3).
`Cc1ccc(C(=O)Nc2ccc(CN)cc2)c(O)c1` — result for “activity recovered after dilution”: greater than 80% (human TMPRSS2 and HAT; jump dilution; concentration not given, 15 min preincubation, 1/100 dilution).
For `CC(=O)[C@H]1CC[C@H]2[C@@H]3CCC4=CC(=NOCC(=O)O)CC[C@]4(C)[C@H]3CC[C@]12C`, the Kd was 0.00155 µM (T3, DNA aptamer; APAA; NaCl 100 mM).
`OC[C@H]1O[C@@H](n2cnc3c(Nc4cccc(Br)c4)ncnc32)[C@H](O)[C@@H]1O` has a residence time of 960 ± 36 s (ADORA3 (Homo sapiens, UniProt P0DMS8); kinetic radioligand binding; no GTP, with: [3H]PSB-11).
`C=C1C(=O)O[C@@H]2[C@H]3C(CO)=CC(=O)C3=C(C)C[C@H](O)[C@@H]12` — result for “Trp emission peak wavelength”: 290 nm (MAL12 (Saccharomyces cerevisiae S288c, UniProt P53341); synchronous fluorescence, Δλ 60 nm; up to 65.22 µM, 298 K, red-shifted from 288 nm).
For `CN(C)CCCCOc1ccc2cc(CN)ccc2c1`, the kcat was 0.05 ± 0.001 s⁻¹ (Primary amine oxidase, liver isozyme (Bos taurus, UniProt Q29437); substrate, fluorescence; pH 7.2, 30 °C).
`Cn1c(-n2nccn2)nc2c(N)nc(NC(=O)c3ccccc3)nc21` — result for “binding free energy”: -9.12 ± 0.04 kcal/mol (ADORA2A (Homo sapiens, UniProt P29274); radioligand displacement; HEK293 cell membranes; 25 °C, with: [3H]ZM241385).

Some of these lines once more:
`Cn1c(-n2nccn2)nc2c(N)nc(NC(=O)c3ccccc3)nc21` — result for “binding free energy”: -9.12 ± 0.04 kcal/mol (ADORA2A (Homo sapiens, UniProt P29274); radioligand displacement; HEK293 cell membranes; 25 °C, with: [3H]ZM241385).
